Results gathered from unrelated publications.
Compare with care: the assays were run in different laboratories.
Target: Homeodomain-interacting protein kinase 2 (HIPK2, Homo sapiens, UniProt Q9H2X6)

SMILES	test	conditions	scale	quantity	value
COc1c(Cl)cccc1Nc1c(-c2ccncc2C#C[C@@]2(C)CCCN2C(=O)/C=C/CN(C)C)[nH]c2c1C(=O)NCC2	binding, competition with immobilised ligand	3 µM	–	remaining binding	69%
NC(=O)C[C@H]1CCc2sc3ncnc(O[C@H]4CC[C@H](N5CCOCC5)CC4)c3c21	enzyme activity, inhibitor	10 µM	–	inhibition	-2%
c1ccc2c(Nc3cc(C4CCC4)[nH]n3)nc(Nc3ccc4nc[nH]c4c3)nc2c1	enzyme activity, inhibitor	0.25 µM	–	remaining activity	62%
CC(C)=CC1OC(C)(C)C2C=C3C(=O)C(Cl)=CC(O)C3C3C(O)C4OC4C(=O)C132 (centres unmarked)	cell-free assay, competition with immobilised ligand	10 µM	–	remaining binding	80%
COc1ccc(NC(=O)Nc2ccc3c(c2)C(=O)N(C(C)CO)CC(C)C(CN(C)Cc2ccc4c(c2)OCO4)O3)cc1 (centres unmarked)	kinase activity, KinaseProfiler	0.03 µM, species human	baseline: control	remaining activity	106%
CN1CC[C@@H](COc2cnc(C#N)cc2-c2ccn3nc(NC(=O)C4CC4)cc3c2)C1	enzyme activity, inhibitor	1 µM	–	inhibition	13%
C=CC(=O)N1Cc2nc(-c3cc(-c4cc(Cl)cnc4Cl)c(F)cc3F)n(-c3ccncn3)c2C1	cell-free assay, inhibitor	1 µM	–	inhibition	3.6%
Cc1ccc(-c2c(/C=C(\C#N)C(=O)NC(C)C)n(CCCO)c3ncnc(N)c23)cc1	cell-free assay, competition with immobilised ligand	1 µM	–	remaining binding	75%
Cc1cccc(-c2ccc3nc(NC(=O)C4CCOCC4)nn3c2)c1	enzyme activity, Dundee kinase panel	10 µM	–	remaining activity	102%
Cc1cccc(O[C@H]2CCC[C@@H](C(C)CNCc3ccncc3)C2)c1 (relative stereo)	enzyme activity, inhibitor	1 µM	–	inhibition	1%
CNC(=O)C[C@H](Cc1ccc(C#N)cc1)NC(=O)c1cc(-c2ccc(CN[C@H](C)c3ccc(C)cc3)o2)ccc1Cl	enzyme activity, inhibitor	1 µM	–	activity vs control	106%
Cc1cccc(-c2ccc3nc(NC(=O)C4CCCCC4)nn3c2)c1	enzyme activity, Dundee kinase panel	10 µM	–	remaining activity	96%
Nc1nc(Nc2ccccc2)sc1C(=O)c1ccccc1	enzyme activity, inhibitor	10 µM	–	remaining activity	3%
O=C=[N][Ru-4]123([n]4c5ccc(O)cc5c5c6c(c7cc(F)c[n+]1c7c54)C(=O)NC6=O)[S+]1CC[S+]2CC[S+]3CC1 (centres unmarked)	enzyme activity	100 nM, human enzyme, added: 10 µM ATP	baseline: untreated	remaining activity	70%
C=CC(=O)Nc1cccc(-c2cnc3[nH]cc(C(=O)NC(C)(C)C)c3n2)c1	enzyme activity, inhibitor	0.1 µM	–	inhibition	65%
C=CC(=O)N1CCCC(n2c(=O)c3ncccc3n(Cc3ccc(Oc4ccccc4)cc3)c2=O)C1 (centres unmarked)	cell-free assay, competition with immobilised ligand	1 µM	–	remaining binding	76%
Nc1ncc(-c2cc(-c3cnn(CC(F)(F)F)c3)ncc2F)nc1C(=O)NC1CNCC(F)C1 (centres unmarked)	enzyme activity	1 µM	baseline: DMSO control	remaining activity	87.6%
